Measurements pooled from the literature.
Each numbered part is a random draw from the data of one study; scales do not carry over between parts.

Study 1 — observed: RNA clamping; technique: fluorescence polarization; concentration: concentration not given; setting: mean of two replicates; added: FAM-labelled poly r(AG)8 RNA
Target: Eukaryotic initiation factor 4A-III (Homo sapiens, UniProt P38919)
UniProt P38919, sequence (whole entry, looked up): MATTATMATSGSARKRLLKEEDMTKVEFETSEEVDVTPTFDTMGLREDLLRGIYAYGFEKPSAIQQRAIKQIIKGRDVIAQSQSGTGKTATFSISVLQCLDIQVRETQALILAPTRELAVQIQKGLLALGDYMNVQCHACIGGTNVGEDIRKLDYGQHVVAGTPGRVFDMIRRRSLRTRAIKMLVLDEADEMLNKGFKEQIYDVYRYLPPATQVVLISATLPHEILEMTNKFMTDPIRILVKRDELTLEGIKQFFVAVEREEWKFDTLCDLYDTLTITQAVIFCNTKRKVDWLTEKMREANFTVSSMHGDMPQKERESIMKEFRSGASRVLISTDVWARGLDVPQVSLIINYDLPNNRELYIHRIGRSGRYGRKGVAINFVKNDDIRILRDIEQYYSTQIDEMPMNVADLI
SMILES | fluorescence polarization change [mP]
C#CCOc1ccc(-c2nc3c(c(=O)n2CC#C)[C@@H](c2ccccc2)[C@]2(c4ccc(OC)cc4)Oc4cc(OC)cc(OC)c4[C@]32O)cc1 | 3.6
COc1ccc([C@@]23Oc4cc(O)cc(OC)c4[C@]2(O)[C@H](O)[C@H](C(=O)N(C)OC)[C@H]3c2ccccc2)cc1 | 6.2
CCOC(=O)COc1cc(OC)c2c(c1)O[C@@]1(c3ccc(OC)cc3)[C@H](c3ccccc3)c3c(nc(-c4ccccc4)[nH]c3=O)[C@@]21OCC(=O)OCC | -1.1
C#CCCC1(CCNC(=O)CCCn2c(-c3ccccc3)nc3c(c2=O)[C@@H](c2ccccc2)[C@]2(c4ccc(OC)cc4)Oc4cc(OC)cc(OC)c4[C@]32O)N=N1 | 4.4
COC(=O)[C@@H]1[C@@H](c2ccccc2)[C@]2(c3ccc(OC)cc3)Oc3cc(OC)cc(OC)c3[C@@]1(O)C2(O)O | 2.7
COc1ccc([C@@]23Oc4cc(OC)cc(OC)c4[C@]2(O)C2=NNC(=O)C2=C3c2ccccc2)cc1 | -0.2
COc1ccc([C@@]23Oc4cc(OC)cc(OC)c4[C@]2(O)C(=O)[C@H](C(=O)NCCCC2(C)OCCO2)[C@H]3c2ccccc2)cc1 | 29.9
CCOCCOCCN(OC)C(=O)[C@H]1[C@@H](O)[C@@]2(O)c3c(OC)cc(OC)cc3O[C@@]2(c2ccc(OC)cc2)[C@@H]1c1ccccc1 | 14.6
COC(=O)[C@@H]1[C@@H](c2ccccc2)[C@]2(c3ccc(OC)cc3)Oc3cc(OC)cc(OC)c3[C@@]23NC(C2CCC2)=N[C@@]13O | 28.3
COc1cc(F)cc2c1[C@]1(O)[C@H](O)[C@@H](C#N)[C@H](c3ccccc3)[C@]1(c1ccc(Br)cc1)O2 | 8.3
COC(=O)[C@@H]1[C@@H](c2ccccc2)[C@]2(c3ccc(OC)cc3)Oc3cc(OC)cc(OC)c3[C@@]23N=C2CCCCN2[C@@]13O | 22.3
COc1ccc([C@@]23Oc4cc(OC)c(F)c(OC)c4[C@]2(O)c2nc4n(c(=O)c2[C@H]3c2ccccc2)CCC4)cc1 | 22.5
COC(=O)[C@@H]1[C@@H](c2ccccc2)[C@]2(c3ccc(OC)cc3)Oc3cc(OC)cc(OC)c3[C@@]23NC(C2CCCCC2)=N[C@@]13O | 40.3

Study 2 — observed: enzyme activity; action: inhibitor; concentration: 0.5 µM; baseline: control
Target: Ephrin type-B receptor 2 (EPHB2, Homo sapiens, UniProt P29323)
UniProt P29323, sequence (whole entry, looked up): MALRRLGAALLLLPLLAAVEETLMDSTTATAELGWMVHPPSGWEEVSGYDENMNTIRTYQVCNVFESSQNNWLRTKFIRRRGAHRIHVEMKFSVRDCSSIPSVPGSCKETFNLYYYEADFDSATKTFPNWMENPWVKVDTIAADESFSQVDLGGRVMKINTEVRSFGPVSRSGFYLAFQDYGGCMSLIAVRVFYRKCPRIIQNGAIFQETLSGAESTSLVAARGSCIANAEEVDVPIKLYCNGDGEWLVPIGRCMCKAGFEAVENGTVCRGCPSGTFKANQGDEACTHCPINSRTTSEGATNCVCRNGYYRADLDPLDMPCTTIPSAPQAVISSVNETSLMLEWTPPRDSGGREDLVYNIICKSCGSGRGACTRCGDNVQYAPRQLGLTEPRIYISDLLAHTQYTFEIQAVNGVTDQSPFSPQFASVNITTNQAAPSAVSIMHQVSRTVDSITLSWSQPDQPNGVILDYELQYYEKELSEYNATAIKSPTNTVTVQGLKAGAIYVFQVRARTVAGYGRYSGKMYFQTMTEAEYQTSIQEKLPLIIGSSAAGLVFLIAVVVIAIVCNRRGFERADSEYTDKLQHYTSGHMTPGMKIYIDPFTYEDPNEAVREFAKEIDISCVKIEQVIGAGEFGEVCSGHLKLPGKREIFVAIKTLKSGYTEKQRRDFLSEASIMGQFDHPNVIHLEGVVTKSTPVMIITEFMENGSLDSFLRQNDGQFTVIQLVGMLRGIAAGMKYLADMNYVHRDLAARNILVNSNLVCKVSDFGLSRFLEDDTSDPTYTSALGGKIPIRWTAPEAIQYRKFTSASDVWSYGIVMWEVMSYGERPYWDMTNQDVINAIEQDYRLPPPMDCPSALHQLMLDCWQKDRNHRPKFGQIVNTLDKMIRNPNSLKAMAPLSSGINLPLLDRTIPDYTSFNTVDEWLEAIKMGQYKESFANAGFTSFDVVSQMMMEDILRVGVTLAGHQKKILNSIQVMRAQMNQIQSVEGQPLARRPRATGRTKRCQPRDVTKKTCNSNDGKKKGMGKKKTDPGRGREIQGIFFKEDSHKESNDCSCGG
SMILES | remaining activity [%]
C[S+]([O-])c1ccc(-c2nc(-c3ccncc3)c(-c3ccc(F)cc3)[nH]2)cc1 (stereo not shown) | 108
CC(C)c1nn(-c2c(Cl)cccc2Cl)c2nc(Cc3ccc(OCCO)cc3)[nH]c(=O)c12 | 92.5
CCN1/C(=C/C(C)=O)Sc2ccc(OC)cc21 | 98.3
Cn1cnc2cc3c(Nc4cccc(Br)c4)ncnc3cc21 | 76.2
O=C(Nc1ccc(Cl)cc1)c1ccccc1NCc1ccncc1 | 84.7
Cc1nc(Nc2ncc(C(=O)Nc3c(C)cccc3Cl)s2)cc(N2CCN(CCO)CC2)n1 | -0.191
CN(C)CCCn1cc(C2=C(c3c[nH]c4ccccc34)C(=O)NC2=O)c2ccccc21 | 100
O=C1NC(=O)/C(=C/c2ccc3nccnc3c2)S1 | 94.7
COc1ccc(-c2cnc3c(-c4ccsc4)cnn3c2)cc1 | 80.5
CCC(=O)Nc1ccc2ncnc(Nc3cccc(Br)c3)c2c1 | 95.1
Cn1cc(/C=C2\C(=O)Nc3ccc(S(N)(=O)=O)cc32)c2ccccc21 | 84.8
COc1cc2ncnc(N3CCN(C(=O)Nc4ccc(Oc5ccccc5)cc4)CC3)c2cc1OC | 98.2
COc1cc2ncnc(Nc3ccc(OCc4ccccc4)cc3)c2cc1OC | 93.9
Cc1ccc(NC(=O)c2ccc(CN3CCN(C)CC3)cc2)cc1Nc1nccc(-c2cccnc2)n1 | 95.8
CC(C)[C@H](CO)Nc1nc(Nc2cccc(Cl)c2)c2ncn(C(C)C)c2n1 | 99.3
CS(=O)(=O)CCNCc1ccc(-c2ccc3ncnc(Nc4ccc(OCc5cccc(F)c5)c(Cl)c4)c3c2)o1 | 101
COc1ccc(Cl)cc1NC(=O)Nc1cc(C)nc2ccccc12 | 93.2
CC(=O)O/N=C1/C(c2c(O)[nH]c3cc(Br)ccc23)=Nc2ccccc21 | 81.4
Nc1[nH]nc2nnc(-c3c(-c4ccccc4)nn4ccccc34)cc12 | 93.1
O=c1cc(N2CCOCC2)oc2c1ccc1ccccc12 | 85
CCOc1cc2ncnc(Nc3cccc(Br)c3)c2cc1OCC | 77

Study 3 — observed: enzyme activity; action: inhibitor; concentration: 10 µM
Target: Calcium/calmodulin-dependent protein kinase type II subunit alpha (CAMK2A, Homo sapiens, UniProt Q9UQM7)
UniProt Q9UQM7, sequence (whole entry, looked up): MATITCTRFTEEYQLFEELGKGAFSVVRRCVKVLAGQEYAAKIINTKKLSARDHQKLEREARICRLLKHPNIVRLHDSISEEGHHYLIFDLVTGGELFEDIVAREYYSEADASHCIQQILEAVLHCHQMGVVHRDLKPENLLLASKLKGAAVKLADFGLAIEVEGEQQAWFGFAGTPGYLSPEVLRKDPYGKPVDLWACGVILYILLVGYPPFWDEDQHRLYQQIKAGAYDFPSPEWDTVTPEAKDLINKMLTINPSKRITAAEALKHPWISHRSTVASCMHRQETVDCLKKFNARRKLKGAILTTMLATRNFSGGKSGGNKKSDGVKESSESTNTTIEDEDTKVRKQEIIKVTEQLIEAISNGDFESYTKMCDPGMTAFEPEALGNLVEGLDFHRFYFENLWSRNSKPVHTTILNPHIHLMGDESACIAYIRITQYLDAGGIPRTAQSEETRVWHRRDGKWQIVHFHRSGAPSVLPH
Compound | inhibition [%]
O=C1OC[C@H]2OC(O)[C@H](O)[C@@H](O)[C@@H]2OC(=O)c2cc(O)c(O)c(O)c2-c2c(O)c(O)c3oc(=O)c4c(c(O)c(O)c5oc(=O)c2c3c54)-c2c1cc(O)c(O)c2O (mixture of isomers) | -40
CC(C)=C1C/C=C(\C)CC/C=C(\C)CC1=O | 14
CC1(C)CC[C@]2(C(=O)O[C@@H]3O[C@H](CO)[C@@H](O)[C@H](O)[C@H]3O)[C@H](O)C[C@]3(C)C(=CC[C@@H]4[C@@]5(C)CC[C@H](O[C@@H]6O[C@H](CO)[C@@H](O)[C@H](O)[C@H]6O)C(C)(C)[C@@H]5CC[C@]43C)[C@@H]2C1 | -17
O=C1CCC(N2C(=O)c3ccccc3C2=O)C(=O)N1 (stereo not shown) | -3
NC(=O)[C@@H]1CSSCCC(=O)N[C@@H](CCCCN=C(N)N)C(=O)NCC(=O)N[C@@H](CC(=O)O)C(=O)N[C@@H](Cc2c[nH]c3ccccc23)C(=O)N2CCC[C@H]2C(=O)N1 | -2
NCC(=O)N[C@@H](Cc1ccc(O)cc1)C(=O)O | -13
C=CCSC[C@H](NC(=O)CC[C@H](N)C(=O)O)C(=O)O | 6
Cn1cc(C(N)=O)ccc1=O | -5
CC(=O)OCC(=O)[C@@]1(O)CC[C@H]2[C@@H]3CCC4=CC(=O)CC[C@]4(C)[C@H]3C(=O)C[C@@]21C | 21
CCCCC(=O)OCC(=O)[C@]1(O)Cc2c(O)c3c(c(O)c2[C@@H](O[C@H]2C[C@H](NC(=O)C(F)(F)F)[C@H](O)[C@H](C)O2)C1)C(=O)c1c(OC)cccc1C3=O | 4

Study 4 — observed: binding; technique: radioligand binding; concentration: 10 µM
Target: 5-hydroxytryptamine receptor 1B (HTR1B, Homo sapiens, UniProt P28222)
UniProt P28222, sequence (whole entry, looked up): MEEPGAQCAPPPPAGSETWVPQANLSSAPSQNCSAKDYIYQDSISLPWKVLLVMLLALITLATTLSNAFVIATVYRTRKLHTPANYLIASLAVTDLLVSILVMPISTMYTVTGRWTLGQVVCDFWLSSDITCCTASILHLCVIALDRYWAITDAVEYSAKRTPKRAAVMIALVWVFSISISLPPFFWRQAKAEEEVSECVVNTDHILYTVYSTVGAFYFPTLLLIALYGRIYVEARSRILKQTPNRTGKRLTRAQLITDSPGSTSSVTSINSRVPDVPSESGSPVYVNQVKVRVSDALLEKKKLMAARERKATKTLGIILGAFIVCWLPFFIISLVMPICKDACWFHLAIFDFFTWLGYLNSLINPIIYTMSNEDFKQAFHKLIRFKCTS
SMILES | inhibition [%]
CC1=C(C#N)C(c2ccc3[nH]nc(C)c3c2)C(C#N)=C(C)N1 | 0.48
CN1C(=O)[C@@H](N2CCc3cn(Cc4ccccc4)nc3C2=O)COc2ccccc21 | 0.99
CN(C)c1ncnc(-c2ccc3nc(Nc4cc(CN5CCN(C(=O)CC(F)(F)F)CC5)ccn4)[nH]c3c2)c1Cl | 6.15
CN1CCN(C(=O)C(C)(C)c2ccc(C(=O)Nc3cn4cc(-c5cc(C(C)(C)C)cc(C(C)(C)C)c5)ccc4n3)cc2)CC1 | 66.9
CC(=O)Nc1c(F)cc(C(=O)N[C@H]2CC[C@H](O)CC2)cc1O[C@@H](C)c1ccccc1 | 11.6
CC1CCN(c2ccnc(NCc3cn(C)cn3)n2)CC1 | 24.4
CC(=O)Nc1nc(CN2CCC[C@H](Cc3cc(C)nc(C)c3)C2)cs1 | 4.01
CCC(F)(F)c1cc(N2CCC(S(C)(=O)=O)CC2)nc2sc(C(N)=O)c(N)c12 | 3.43
N#CC1(c2ccccn2)CCN(Cc2cc(C(=O)N3CCCC3)c(=O)n3ccccc23)CC1 | 13
Cc1noc([C@H]2C[C@@H](c3ccc(C(F)(F)F)cc3)CN(C(=O)N3CCS(=O)(=O)C3)C2)n1 | 4.16
O=C(NCCCC1CCCCC1)c1ccc(CNC(=O)c2cnn(-c3ccccc3)c2C(F)(F)F)cc1 | 9.89
Cc1cc(C)c(-n2ccn3nc(-c4cccnc4)cc23)cc1NC(=O)c1cc(C#N)cc(S(F)(F)(F)(F)F)c1 | 14.4
c1ccc(C2CCN(c3cnc4c(N5CCOCC5)nccn34)CC2)cc1 | 8.68
COc1cc(N[C@@H]2CCCC[C@]2(O)C(F)(F)F)ccc1F | -10.4
COCc1nc2cnc3cc(-c4c(C)noc4C)c(OC[C@H]4CCNC4)cc3c2n1[C@H](C)c1ccccc1 | 8.66
COc1cc(C(=O)O)ncc1C#Cc1ccccc1NS(=O)(=O)c1cccc2c(N(C)C)ccnc12 | 10.6
O=C(NNS(=O)(=O)c1ccccc1)c1cc(-c2ccnnc2)ccc1F | 11
O=C(Nc1ccc(Oc2ccc(F)cc2)cc1)N1CCc2ncccc2[C@H]1c1ccc(F)cc1 | 18.8
NS(=O)(=O)c1cc(NC(=O)Cc2ccccc2)ccc1Oc1cccc(Cl)c1 | -2.93
O=C(Nc1ccc(-n2nc(-c3cccnc3)cc2C(F)(F)F)cn1)c1ccc(-c2ccccc2)c(F)c1 | -0.85

Some of these lines once more (study 2):
SMILES | remaining activity [%]
Cc1nc(Nc2ncc(C(=O)Nc3c(C)cccc3Cl)s2)cc(N2CCN(CCO)CC2)n1 | -0.191
CN(C)CCCn1cc(C2=C(c3c[nH]c4ccccc34)C(=O)NC2=O)c2ccccc21 | 100
O=C1NC(=O)/C(=C/c2ccc3nccnc3c2)S1 | 94.7
COc1ccc(-c2cnc3c(-c4ccsc4)cnn3c2)cc1 | 80.5
CCC(=O)Nc1ccc2ncnc(Nc3cccc(Br)c3)c2c1 | 95.1
